Measurements gathered from unrelated publications.
Every numbered part comes from another study and shows a few of its results, in no order. Changes are numbered by the printed parent chain.

Set 1
Target: ATF3, bZIP domain (human)
Technique: DHFR protein complementation
Medium: yeast
Setting: single substitutions, most at no-binding floor
Relative to: wild-type JUN-FOS pair
Direction: higher = stronger binding
Starting sequence: JUN, bZIP domain (human); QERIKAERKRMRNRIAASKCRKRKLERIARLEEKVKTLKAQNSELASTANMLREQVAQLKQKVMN; partner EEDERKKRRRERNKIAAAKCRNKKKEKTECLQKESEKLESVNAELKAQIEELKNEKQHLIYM
| Substitution | binding fitness [natural log] |
| --- | --- |
| N42M | -0.595 |
| S47Q | -0.0636 |
| R53W | -0.612 |
| Q55K | -0.405 |
| T48D | -0.374 |
| V56S | -1.42 |
| Q55P | -1.08 |
| L52Y | -0.482 |
| I28T | -0.198 |
| L38Y | -0.787 |
| E32Q | -0.287 |
| L45C | -1.26 |
| K36S | -0.112 |
| T48M | -0.106 |
| T37P | -1.08 |
| V35Q | -1.07 |
| T48I | -0.0999 |
| I28G | -0.117 |
| A40D | -0.207 |
| R30E | 0.0579 |
| A40Y | -0.348 |
| E44W | -0.321 |
| A49V | -0.0754 |
| L38T | -0.949 |
| K34N | -0.288 |

Set 2
Target: Histone acetyltransferase KAT6A, winged helix 1, GST fusion (KAT6A, Homo sapiens, UniProt Q92794, residues 1-85)
Technique: protein binding microarray
Molecule type: double-stranded DNA, one strand shown
Medium: in vitro
Concentration: not given
Setting: 8-mer, flanks averaged, mean of 2 arrays, mostly near background
Relative to: not given
Direction: higher = stronger binding
Construct (chain): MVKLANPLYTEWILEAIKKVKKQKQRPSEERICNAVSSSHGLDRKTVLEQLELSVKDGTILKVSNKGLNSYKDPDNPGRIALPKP
| Oligonucleotide | E-score |
| --- | --- |
| ATCACGAA | -0.114 |
| GAGACCGC | 0.3 |
| AATTCAAC | -0.1 |
| ATGGCTTA | -0.161 |
| CCCGTCAC | 0.291 |
| GTATGGAA | -0.135 |
| TATAACCA | -0.185 |
| ACCTTTTG | -0.128 |
| CATTGCAC | -0.211 |
| AGAATGGC | -0.254 |
| CATTTATC | -0.25 |
| AAGATTGA | -0.0738 |
| AATGGCCG | 0.172 |
| ATAGCAGG | -0.111 |
| AGGCACTC | -0.0933 |
| GGGTCATA | -0.0355 |
| AACTGCAC | -0.174 |
| CATGCATA | 0.0264 |
| ATGCGACA | 0.139 |
| ATTGTATC | -0.0817 |
| AACGGGAT | 0.228 |
| CCTTTAGC | -0.0266 |
| CACGGGAC | 0.219 |
| ATATTGAT | -0.219 |
| ACGGAAGA | 0.211 |

Set 3
Target: ABI1, truncated, D143A, DHFR fusion (Arabidopsis thaliana)
Technique: DHFR PCA, deep sequencing
Medium: yeast
Setting: methotrexate growth selection, single substitutions
With: (+)-ABA 17 µM
Relative to: wild-type fitted maximum
Direction: higher = stronger binding
Starting sequence: PYL1, truncated, DHFR fusion (Arabidopsis thaliana); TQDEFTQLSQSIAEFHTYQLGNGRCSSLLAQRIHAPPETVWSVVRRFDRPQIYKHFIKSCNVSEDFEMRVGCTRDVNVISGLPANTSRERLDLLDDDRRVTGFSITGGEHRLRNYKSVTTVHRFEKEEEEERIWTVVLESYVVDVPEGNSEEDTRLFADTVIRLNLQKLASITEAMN
| Substitution | relative binding score |
| --- | --- |
| T160P | -19.2% |
| H34S | 84.2% |
| G107E | 41.4% |
| Q7G | 83.4% |
| V118H | 72.3% |
| R163W | 4.57% |
| S63W | 24.7% |
| N149P | -2.17% |
| R123V | 58.2% |
| T120I | -0.755% |
| L166H | 58.5% |
| Q51G | 52.3% |
| F66H | 65.8% |
| L8H | 56.7% |
| S59K | 67.5% |
| G21Y | 68.3% |
| R90K | 75.1% |
| G102R | 11.6% |
| T101R | -11% |
| F15Q | 16.1% |
| R155E | 13.6% |

Set 4
Target: Ras GTPase-activating protein-binding protein 1, RRM domain (G3BP1, Homo sapiens, UniProt Q13283)
Chain of UniProt Q13283 (whole entry, looked up): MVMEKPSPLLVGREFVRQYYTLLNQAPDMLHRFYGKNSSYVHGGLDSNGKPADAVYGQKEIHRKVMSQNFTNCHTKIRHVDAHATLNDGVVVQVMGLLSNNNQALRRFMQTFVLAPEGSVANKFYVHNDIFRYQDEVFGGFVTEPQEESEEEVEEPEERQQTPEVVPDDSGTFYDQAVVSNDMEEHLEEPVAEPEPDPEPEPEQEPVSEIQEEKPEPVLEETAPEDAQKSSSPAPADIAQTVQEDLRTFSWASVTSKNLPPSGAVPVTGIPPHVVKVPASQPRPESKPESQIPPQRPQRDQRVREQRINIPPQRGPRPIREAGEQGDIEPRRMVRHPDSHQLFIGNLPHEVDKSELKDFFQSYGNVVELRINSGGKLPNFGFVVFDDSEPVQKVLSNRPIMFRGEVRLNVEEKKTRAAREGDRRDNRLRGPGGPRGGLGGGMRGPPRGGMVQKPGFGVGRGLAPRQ
Technique: RNA Bind-n-Seq
Molecule type: RNA
Medium: in vitro
Concentration: 1 µM
Setting: whole 134-nt RNA, ends assumed
With: 150 mM KCl
Relative to: input library
Direction: higher = stronger binding
| Oligonucleotide | log2 enrichment |
| --- | --- |
| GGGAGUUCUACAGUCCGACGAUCUGUCAUGGAUUCAAGUUAUUAAAAGCAUAAGUUUGGAAGACAGGCUUGCCGAAAUUGAGGACAUGAUUAAAAUUGCAGUGAAGUUUGAAAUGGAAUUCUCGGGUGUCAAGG | -0.256 |
| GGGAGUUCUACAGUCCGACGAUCCAAGUCCUGUGCUACACAUCGUAUGUACCGAAUCGGGAAAGGGGAAAGGAAAGGGGAAAGUAUUAUGUUACGCCGUUCGGAUCUGCACUUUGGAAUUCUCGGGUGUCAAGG | 0.263 |
| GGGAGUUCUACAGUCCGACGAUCUGGAGCUACAGAUGGUGUCCUUCCUGCCAGGUGUGUGUGGAGGCCAGUAUGAAGCUGAAAAAGCAGGUGACAGUGUGUGGGGCUGCCAUCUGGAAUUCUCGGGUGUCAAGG | -0.157 |
| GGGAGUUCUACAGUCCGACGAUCUCCCGACAUCUGUGGCCCUGGCACCAAGAAGGUUCAUGUCAUCUUCAACUACAAGGGCAAGAACGUGCUGAUCAACAAGGACAUCCGUUGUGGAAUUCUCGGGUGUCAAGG | 0.00442 |
| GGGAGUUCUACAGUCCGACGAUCUUGUGAGCUGCAAGCUAGGCUGCAGGCCCAGGAAGAACAGCAUCAGGAAGUCCAGAAGGCAAAAGAAGCAGACAUAGAGAAGCUGAACCAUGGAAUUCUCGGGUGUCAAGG | -0.152 |
| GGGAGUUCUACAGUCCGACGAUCUCCUGUGCUACACAUCGUAUGUACCGAAUCGGGAAAAAAGGAAAAAAGGAAAAAAGGGGAAAGUAUUAUGUUACGCCGUUCGGAUCUGCAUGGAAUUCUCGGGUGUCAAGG | -0.0673 |
| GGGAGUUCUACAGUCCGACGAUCUGGCCCUGGUGGCAAGCGGGGAGGAAGAGGUGGCCUCAUGGAUCGUGGUGGUCCCGGUGGAAUGUUCAGAGGUGGCCGUGGUGGAGACAGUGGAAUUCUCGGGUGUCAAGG | 0.819 |
| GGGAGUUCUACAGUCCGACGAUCUCCUCAAGUCCUGUGCUACACAUCGUAUGUACCGAAUCGGUGGGUGGGGUGGAAAGUAUUAUGUUACGCCGUUCGGAUCUGCACUUCCAGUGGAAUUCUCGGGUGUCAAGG | -0.142 |
| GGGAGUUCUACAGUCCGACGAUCGUCCUGUGCUACACAUCGUAUGUACCGAAUCGGGGAAAGGGGAAAAAGGGGUUUGGGGAAAGUAUUAUGUUACGCCGUUCGGAUCUGCACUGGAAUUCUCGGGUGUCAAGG | 1.38 |
| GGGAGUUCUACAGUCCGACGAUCCUCAAGUCCUGUGCUACACAUCGUAUGUACCGAAUCGGGGUGGGGUGGGUGGGGAAAGUAUUAUGUUACGCCGUUCGGAUCUGCACUUCCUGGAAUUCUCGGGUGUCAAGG | 0.126 |

Set 5
Target: CCNB3, cyclin fold, Cln2 fusion (human)
Technique: yeast growth competition, sequencing
Medium: yeast
Setting: weak parent motif
Relative to: not given
Direction: higher = stronger binding
Starting sequence: RB1 docking peptide (human); PKPLKKLRFDIEG
| Substitution | normalised enrichment score |
| --- | --- |
| PPPLKKLRFDIEG [K2P] | 0.221 |
| PKVLKKLRFDIEG [P3V] | -0.511 |
| PKPLKCLRFDIEG [K6C] | 0.205 |
| PKALKKLRFDIEG [P3A] | 0.198 |
| PKPLKKLRFLIEG [D10L] | 0.14 |
| PKPLLKLRFDIEG [K5L] | 0.165 |
| PKPLKKLRFDQEG [I11Q] | -0.188 |
| PKPLKKLRTDIEG [F9T] | 0.214 |
| PKPLKKLPFDIEG [R8P] | 0.398 |
| PKPLKKLRFDIRG [E12R] | -0.183 |
| PKPLKKLRFDITG [E12T] | 0.385 |
| PKPLKKLRFDIAG [E12A] | -0.161 |
| PIPLKKLRFDIEG [K2I] | 0.716 |
| PKPLKKLTFDIEG [R8T] | 0.725 |
| PKPLAKLRFDIEG [K5A] | 0.177 |
| PKPLKLLRFDIEG [K6L] | 0.596 |
| LKPLKKLRFDIEG [P1L] | -0.21 |
| PKPLKKGRFDIEG [L7G] | 0.36 |
| PKPTKKLRFDIEG [L4T] | -0.226 |
| PKPLKKLRFDIWG [E12W] | 0.0664 |
| PKPLKKLRFDIHG [E12H] | -0.335 |
| PKPLKKLRVDIEG [F9V] | 0.604 |
| QKPLKKLRFDIEG [P1Q] | 0.202 |
| PKPLKKLRFDIYG [E12Y] | 0.393 |
| PKPLKKLRFDIDG [E12D] | -0.0353 |
